Measured values collected from several papers.
Each line is one published result; not all experiments were run side by side. Values joined by “and” are separate records of one study, mostly repeats; a detail may differ. Numbers after ± are the reported error.

Compound = CCn1cc(-c2cc(Cn3ccnc3)cc3c2CCN([C@H](c2cc(OC)ccn2)C2CC2)C3=O)c(C(F)(F)F)n1; tested on = KYSE-70; test = cell growth, inhibitor; conditions = 120 h; quantity = EC50; result = 2310 nM
Compound = CC1=NN(c2ccc(C(=O)O)cc2)C(=O)/C1=C\c1ccc(-c2cc(C)c(C)cc2[N+](=O)[O-])o1; tested on = HBL-1; conditions = 0.1 µM, 120 h; quantity = viability; result = 112%
Compound = CC[C@H](CO)Nc1nc(NCc2ccc(-c3ccccn3)cc2)c2ncn(C(C)C)c2n1; tested on = IMR-32; test = Western blot; conditions = 5 µM; quantity = time to MYCN down-regulation; result = < 6 h
Compound = Cc1ccc(C(=O)Nc2ccc(S(=O)(=O)O)c3cc(S(=O)(=O)O)cc(S(=O)(=O)O)c23)cc1NC(=O)c1cccc(NC(=O)Nc2cccc(C(=O)Nc3cc(C(=O)Nc4ccc(S(=O)(=O)O)c5cc(S(=O)(=O)O)cc(S(=O)(=O)O)c45)ccc3C)c2)c1; tested on = HBL-1; conditions = 1 µM, 120 h; quantity = viability; result = 104%
Compound = CC(=O)O/N=C1/C(=C2/C(=O)Nc3cc(Br)ccc32)Nc2ccccc21; tested on = HeLa expressing Ub(G76V)-GFP; test = Ub(G76V)-GFP degradation, cycloheximide chase; conditions = 12 µM; quantity = inhibition; result = 9%
Compound = O=C(Nc1cccc(-c2cccc(-c3nc4ccccc4[nH]3)c2)c1)NC1CC1c1ccccc1 (stereo not shown); tested on = Plasmodium yoelii; test system = 17XL; conditions = 384-well; quantity = IC50; result = > 20000 nM
Compound = Cc1cc(C)c(CNC(=O)c2cc(-c3ccc(CN4CCOCC4)cc3)cc3c2cnn3C2CCCC2)c(=O)[nH]1; tested on = HBL-1; conditions = 1 µM, 120 h; quantity = viability; result = 101%
Compound = CC/C(=N\NC(=O)C(C)Nc1ccccc1)c1ccc(O)c(C)c1O (stereo not shown); tested on = SK-OV-3; test = Western blot, refers to: LATS; conditions = 10 µM, 3 h, 3D gellan gum culture, unit not given; scale = reference: β-actin; quantity = protein level; result = 0.75 ± 0.45
Compound = CCCCc1oc2ccc(NS(C)(=O)=O)cc2c1C(=O)c1ccc(OCCCN(CCCC)CCCC)cc1; tested on = human embryonic stem cell aggregates; test = mRNA level, microarray, refers to: SLC22A23; conditions = 0.5 µM, 120 h; scale = reference: untreated, up-regulated; quantity = fold change; result = 1.9 fold
Compound = CC(C)(C)C(=O)OCOP(=O)(COCCn1cnc2c(N)ncnc21)OCOC(=O)C(C)(C)C; tested on = BT-12; test = cell viability, MTT; conditions = 10 µM, 72 h; quantity = inhibition; result = 90.9%
Compound = Cc1[nH]c(C)c(C2CCC(c3ccc(Cl)cc3)CC2)c(=O)c1Cl (stereo not shown); tested on = Plasmodium yoelii; test system = 17XL; conditions = 384-well; quantity = IC50; result = 42 ± 1 nM
Compound = Nc1nc(S)nc(O)c1N=Cc1cn(-c2ccccc2)nc1-c1ccc(Cl)cc1; tested on = CCRF-CEM; test = flow cytometry; conditions = CC20 or CC30, 72 h; quantity = cells in S phase; result = 23.4%
Compound = Nc1ncnc2c1ncn2[C@@H]1O[C@H](CO)[C@@H](O)[C@H]1O; tested on = activated human T cells; test = refers to: adenosine; conditions = 50 µM; scale = reference: DMSO; quantity = log2 fold change; result = 1.1 and 2
Compound = CCCCCCCCCCCCCCCc1cccc(O)c1C(=O)O; tested on = HBL-1; conditions = 0.1 µM, 120 h; quantity = viability; result = 129%
Compound = C=CCn1c(=O)c2cnc(Nc3ccc(N4CCN(C)CC4)cc3)nc2n1-c1ccc2c(n1)[C@@](O)(CC)CC2; tested on = OVCAR-3; test = flow cytometry; conditions = concentration not given, EdU-negative S phase; quantity = γH2AX-positive cells; result = 55.7%
Compound = Cc1ccc(NC2=CC(=O)c3sc(C)nc3C2=O)cc1; tested on = HeLa expressing Ub(G76V)-GFP; test = Ub(G76V)-GFP degradation, cycloheximide chase; conditions = 12 µM; quantity = inhibition; result = 77%
Compound = O=C(/C=C/C=C/C=C/C1CCCCC1)NC1=C[C@@](O)(/C=C/C=C/C=C/C(=O)NC2=C(O)CCC2=O)[C@@H]2O[C@@H]2C1=O; tested on = LXF-289; test = cell growth, CellTiter-Glo; conditions = 78 h; quantity = GI50; result = 15600 nM
Compound = CC(=O)c1cc2c(o1)C(=O)c1ccccc1C2=O; tested on = BT-12; test = cell viability, MTT; conditions = 10 µM, 72 h; quantity = inhibition; result = 94.6%
Compound = Cn1c(Nc2nc3ccc(C(F)(F)F)cc3s2)nc2cc(C(=O)NCCOCCO)ccc21; tested on = SH-SY5Y; test = RNA-seq, refers to: PLAT mRNA; conditions = 5 µM, 5 h; scale = reference: untreated cells; quantity = fold change; result = 3.19
Compound = O=C(/C=C/C#Cc1cccc(NS(=O)(=O)c2ccccc2)c1)NO; tested on = HBL-1; conditions = 0.5 µM, 120 h; quantity = viability; result = 24.7%
Compound = N#Cc1c(NC(=O)c2cccc3ccccc23)sc2c1CCCC2; tested on = HeLa expressing Ub(G76V)-GFP; test = Ub(G76V)-GFP degradation, cycloheximide chase; conditions = 12 µM; quantity = inhibition; result = 29%
Compound = COc1ccc(Cn2ccc3ccc(C(=O)NO)cc32)cc1; tested on = HBL-1; conditions = 0.1 µM, 120 h; quantity = viability; result = 120%
Compound = Cc1cc(-c2ccccc2)n(-c2nc(-c3ccc(Cl)cc3)c3c(NC(=O)c4ccccc4)nnc-3[nH]2)n1; tested on = Hs-578T; test = SRB; conditions = 10 µM, NCI60 single-dose screen; scale = reference: untreated; quantity = cell growth; result = 70.5%
Compound = CC(Nc1nc(N2CCCC2)nc2ccccc12)c1ccccc1 (stereo not shown); tested on = HeLa Kyoto; test = RelA nuclear import, high content imaging; conditions = 15.82 µM, 3 h, added: 1 µM PMA, 60 min; quantity = cells with nuclear RelA; result = 77.8% and 80.7%
Compound = O=C(c1ccc(C(=O)N2CCC(N3CCCC3)CC2)c(Nc2ccccc2)c1)N1CCC(N2CCCC2)CC1; tested on = HBL-1; conditions = 1 µM, 120 h; quantity = viability; result = 95.8%

Some of these lines once more:
Compound = Cc1[nH]c(C)c(C2CCC(c3ccc(Cl)cc3)CC2)c(=O)c1Cl (stereo not shown); tested on = Plasmodium yoelii; test system = 17XL; conditions = 384-well; quantity = IC50; result = 42 ± 1 nM
Compound = Nc1nc(S)nc(O)c1N=Cc1cn(-c2ccccc2)nc1-c1ccc(Cl)cc1; tested on = CCRF-CEM; test = flow cytometry; conditions = CC20 or CC30, 72 h; quantity = cells in S phase; result = 23.4%
Compound = Nc1ncnc2c1ncn2[C@@H]1O[C@H](CO)[C@@H](O)[C@H]1O; tested on = activated human T cells; test = refers to: adenosine; conditions = 50 µM; scale = reference: DMSO; quantity = log2 fold change; result = 1.1 and 2
Compound = CCCCCCCCCCCCCCCc1cccc(O)c1C(=O)O; tested on = HBL-1; conditions = 0.1 µM, 120 h; quantity = viability; result = 129%
